Assay results from different studies.
Lines come from different studies, so protocols differ.

CCO[C@H]1CCN(Cc2c(OC)cc(C)c3[nH]ccc23)[C@H](c2ccc(C(=O)O)cc2)C1  patients with adverse event (measured: Pyrexia; PNH patients, active haemolysis; oral, 100 mg twice daily, extension phase): 20%
CNC(=O)c1cc(Oc2ccc(NC(=O)Nc3cc(C(C)(C)C)nn3-c3ccc4ncccc4c3)c(F)c2)ccn1  patients with cardiac disorders (patients; oral, dose not given, cycles 1 and 2, Low AUC subgroup): 13%
C=CC(=O)Nc1cc(Nc2nccc(-c3cn(C)c4ccccc34)n2)c(OC)cc1N(C)CCN(C)C  patients with adverse events (measured: treatment-related grade ≥3 Anemia; EGFR-mutant MET-altered NSCLC; oral): 0%
FC(F)(F)c1ccc(CNc2ccc(Cc3c[nH]c4ncc(Cl)cc34)cn2)cn1  patients with treatment-related adverse event (measured: blood alkaline phosphatase increased; patients with TGCT; oral, 1000 mg/day, grade 3 or higher): 0%
CCOc1c([C@H](C)n2nc(C)c3c(N)ncnc32)cc(Cl)c(F)c1[C@@H]1CNC(=O)C1  patients (measured: QTcF change ≤30 ms; previously treated B-cell malignancy; oral, 20 mg once daily, overall population; baseline: baseline): 100%
NC(=O)N1c2ccccc2C=Cc2ccccc21  patients with Diarrhea (male patients; oral, dose not given, on-treatment adverse events): 7%
Cc1ccc(C(=O)N(CCCN)C(c2nc3snc(C)c3c(=O)n2Cc2ccccc2)C(C)C)cc1 (stereo not shown)  patients with grade ≥3 mucosal inflammation (patients; intravenous, 16 mg/day): 22%
C=CCN1CC(=O)N2[C@@H](Cc3ccc(O)cc3F)C(=O)N(Cc3cccc(N4CC(N5CCN(CC)CC5)C4)n3)C[C@@H]2N1C(=O)NCc1ccccc1  patients with ALT increased (advanced solid tumour patients; 100 mg twice daily, treatment-related, any grade): 33.3%
FC(F)(F)c1ccc(CNc2ccc(Cc3c[nH]c4ncc(Cl)cc34)cn2)cn1  patients with AST increase (patients with advanced solid tumours; oral, dose not given, all grades, related to treatment): 35%
CNC(=O)c1ccc(-c2cnc3ncc(Cc4ccc5ncccc5c4)n3n2)cc1F  patients with adverse event (measured: Dyspnea; hepatocellular carcinoma patients; oral, 600 mg twice daily, expansion cohort, grade 3-4): 0%
C=CC[C@@H]1/C=C(\C)C[C@H](C)C[C@H](OC)[C@H]2O[C@@](O)(C(=O)C(=O)N3CCCC[C@H]3C(=O)O[C@H](/C(C)=C/[C@@H]3CC[C@@H](O)[C@H](OC)C3)[C@H](C)[C@@H](O)CC1=O)[C@H](C)C[C@@H]2OC  patients with C0 in therapeutic range (kidney transplant recipients, whole blood; oral, dose not given, early post-transplant phase): 35%
Cc1cc(-c2nnc(N)nc2-c2ccc(F)cc2)cc(Cl)n1  patients with immune-mediated AE (measured: Colitis; IO-naive colorectal cancer patients; oral, dose not given, treatment-related, grade ≥3): 0%
C[C@@H](Nc1cc(F)cc(F)c1)c1cc(C(=O)N(C)C)cc2c(=O)cc(N3CCOCC3)oc12  patients with related SAE (CTCAE v4, measured: maculopapular rash; patients with advanced solid tumours; oral, dose not given, phase I dose expansion): 0%
O=C(Nc1nc2cccc(-c3ccc(CN4CCS(=O)(=O)CC4)cc3)n2n1)C1CC1  patients with Regurgitation (rheumatoid arthritis patients; oral, 100 mg twice daily, 4 weeks, TEAE regardless of relatedness): 0%
COc1cc(Nc2ncc3c(n2)-c2ccc(Cl)cc2C(c2c(F)cccc2OC)=NC3)ccc1C(=O)O  patients with oral mucositis (cancer patients; oral, dose not given, all grades any attribution, with: pembrolizumab): 29%
Cc1cc(NC2CCN(C(=O)OC3CCN(C(=O)/C=C/CN(C)C)C3)CC2)n2ncc(C(C)C)c2n1 (stereo not shown)  patients with TEAE (CTCAE v4.0, measured: Hypotension; patients with advanced solid tumours; oral, dose not given, all schedules, grade 3 or higher): 2%
COc1ccc([C@@H](O)c2cc(-c3ncnc4cc(N5CCOCC5)ccc34)c(F)cc2Cl)nn1  patients with drug-related AE (measured: general and administration site disorders; locally advanced rectal cancer patients; 50 mg, with: capecitabine plus radiotherapy): 100%
CC(C)C[C@H](NC(=O)[C@@H](Cc1c[nH]c2ccccc12)NC(=O)[C@H](Cc1ccc(O)cc1)NC(=O)[C@H](CO)NC(=O)[C@H](Cc1c[nH]c2ccccc12)NC(=O)[C@H](Cc1c[nH]cn1)NC(=O)[C@@H]1CCC(=O)N1)C(=O)N[C@@H](CCCNC(=N)N)C(=O)N1CCC[C@H]1C(=O)NCC(N)=O  patients with adverse events (Chinese CPP children, boys; intramuscular, 22.5 mg, 12 months, day 1, month 6): 100%
Cc1cc(Nc2ccc(S(F)(F)(F)(F)F)cc2)n2nc(C(C)(F)F)nc2n1  patients with eye disorders (Plasmodium vivax malaria patients; oral, 600 mg): 0%
